Assay results collected from several papers.
Each line is one published result; not all experiments were run side by side. Several values in a cell are separate wells, animals, samples, runs or records. ± marks the error that the study gave.

Compound	test	system	conditions	how to read	quantity	result
Cc1nc2ccc(OCc3ccc(C(F)(F)F)cc3)cc2[nH]1	–	Balb/c mouse, male, lungs	oral, 10 mg/kg, 72 h	–	tissue concentration	3.9 ± 0.6 ng/g
CCc1c2c(nc3ccc(OC(=O)N4CCC(N5CCCCC5)CC4)cc13)-c1cc3c(c(=O)n1C2)COC(=O)[C@]3(O)CC	–	mouse Bcrp1(−/−), colon	intraperitoneal, 50 mg/kg, 24 h	–	tissue concentration	18600 ± 3400 ng/g
COCCCOc1cc2c(cc1OC)-c1cc(=O)c(C(=O)O)cn1[C@H](C(C)C)C2	–	CD-1 mouse, brain	oral, 10 mg/kg	–	tissue concentration	< 1000 ng/g and > 500 ng/g
CC(C)NCCCC[C@@H]1NC(=O)[C@H](Cc2ccc(O)cc2)NC(=O)[C@H](Cc2ccccc2)NC(=O)CC[C@H](C(=O)N[C@@H](CCCCNC(C)C)C(=O)N[C@@H](CCCCNC(=O)[C@H](CCC(=O)O)NC(=O)[C@H](CCC(=O)O)NC(=O)[C@H](CCC(=O)O)NC(=O)CN2CCN(CC(=O)O)CCN(CC(=O)O)CCN(CC(=O)O)CC2)C(N)=O)NC(=O)CNC(=O)[C@H](Cc2ccc3ccccc3c2)NC(=O)[C@@H](CCCNC(=N)N)NC1=O [gallium-68 labelled]	–	mouse with Daudi xenograft, adrenals	intravenous, 1 h	–	tissue uptake	0.36 %ID/g
CN[C@H](CC(C)C)C(=O)N[C@H]1C(=O)N[C@@H](CC(N)=O)C(=O)N[C@H]2C(=O)N[C@H]3C(=O)N[C@H](C(=O)N[C@H](C(=O)O)c4cc(O)cc(O)c4-c4cc3ccc4O)[C@H](O)c3ccc(c(Cl)c3)Oc3cc2cc(c3O[C@@H]2O[C@H](CO)[C@@H](O)[C@H](O)[C@H]2O[C@H]2C[C@](C)(N)[C@H](O)[C@H](C)O2)Oc2ccc(cc2Cl)[C@H]1O	–	male C57BL/6J mouse, thalamus	intracerebroventricular, 84 µg, 2.5 h	reference: intracerebroventricular over intravenous 35 mg/kg	tissue concentration ratio	2 orders of magnitude
OCc1nc2ccc(NCc3ccc(C(F)(F)F)cc3)cc2[nH]1	–	Balb/c mouse, male, liver	intravenous, 1 mg/kg, 6 h	–	tissue concentration	71.8 ± 21.1 ng/g
COc1cccc(OC)c1-c1cc(C(=O)NC2(C(=O)O)C3CC4CC(C3)CC2C4)nn1-c1ccc(C(=O)N(C)CCCN(C)CCCN(C)C(=O)CN2CCN(CC(=O)[O-])CCN(CC(=O)[O-])CCN(CC(=O)[O-])CC2)cc1C(C)C.[177Lu+3] (centres unmarked)	–	SCID mouse HT-29 xenograft, large intestine	iv, 4 h	–	tissue uptake	3.7 ± 1.2 %ID/g
CSc1cc(C)nc(SC)c1NC(=O)CN1CCN(CCSc2nc3ccccc3[nH]2)CC1.Cl	–	mouse, olfactory bulb	intranasal, 50 µL in 0.01 N HCl daily for 7 days, 120 min after last dose, LLOQ 1 ng/g	–	tissue concentration	not detected
O=c1cc(-c2ccc(O)cc2)oc2c([C@@H]3OC[C@H](O)[C@H](O)[C@H]3O)c(O)c([C@@H]3O[C@H](CO)[C@@H](O)[C@H](O)[C@H]3O)c(O)c12	UHPLC-MS/MS	C57BL/6J mouse, kidneys	oral, dose not given	–	tissue concentration	0.31 ng/g
N[C@@H](C[18F])C(=O)O	–	athymic nude mouse, non-bone tissues	intravenous, 110 min	–	tissue uptake	≤ 1 %ID/g
COc1cccc(OC)c1-c1cc(C(=O)NC2(C(=O)O)C3CC4CC(C3)CC2C4)nn1-c1ccc(C(=O)N(C)CCCN(C)CCCN(C)C(=O)CN2CCN(CC(=O)[O-])CCN(CC(=O)[O-])CCN(CC(=O)[O-])CC2)cc1C(C)C.[177Lu+3] (centres unmarked)	–	mouse, HT-29 xenograft, kidney	72 h post injection	–	tissue uptake	0.24 %ID/g

Repeated from above:
Compound	test	system	conditions	how to read	quantity	result
Cc1nc2ccc(OCc3ccc(C(F)(F)F)cc3)cc2[nH]1	–	Balb/c mouse, male, lungs	oral, 10 mg/kg, 72 h	–	tissue concentration	3.9 ± 0.6 ng/g
